# Experimental data collected from several papers.
# Every numbered part comes from another study and shows a few of its results, in no order. Values joined by “and” are separate records of one study, mostly repeats; a detail may differ.
# UniProt P42336, sequence (whole entry, unmodified, looked up): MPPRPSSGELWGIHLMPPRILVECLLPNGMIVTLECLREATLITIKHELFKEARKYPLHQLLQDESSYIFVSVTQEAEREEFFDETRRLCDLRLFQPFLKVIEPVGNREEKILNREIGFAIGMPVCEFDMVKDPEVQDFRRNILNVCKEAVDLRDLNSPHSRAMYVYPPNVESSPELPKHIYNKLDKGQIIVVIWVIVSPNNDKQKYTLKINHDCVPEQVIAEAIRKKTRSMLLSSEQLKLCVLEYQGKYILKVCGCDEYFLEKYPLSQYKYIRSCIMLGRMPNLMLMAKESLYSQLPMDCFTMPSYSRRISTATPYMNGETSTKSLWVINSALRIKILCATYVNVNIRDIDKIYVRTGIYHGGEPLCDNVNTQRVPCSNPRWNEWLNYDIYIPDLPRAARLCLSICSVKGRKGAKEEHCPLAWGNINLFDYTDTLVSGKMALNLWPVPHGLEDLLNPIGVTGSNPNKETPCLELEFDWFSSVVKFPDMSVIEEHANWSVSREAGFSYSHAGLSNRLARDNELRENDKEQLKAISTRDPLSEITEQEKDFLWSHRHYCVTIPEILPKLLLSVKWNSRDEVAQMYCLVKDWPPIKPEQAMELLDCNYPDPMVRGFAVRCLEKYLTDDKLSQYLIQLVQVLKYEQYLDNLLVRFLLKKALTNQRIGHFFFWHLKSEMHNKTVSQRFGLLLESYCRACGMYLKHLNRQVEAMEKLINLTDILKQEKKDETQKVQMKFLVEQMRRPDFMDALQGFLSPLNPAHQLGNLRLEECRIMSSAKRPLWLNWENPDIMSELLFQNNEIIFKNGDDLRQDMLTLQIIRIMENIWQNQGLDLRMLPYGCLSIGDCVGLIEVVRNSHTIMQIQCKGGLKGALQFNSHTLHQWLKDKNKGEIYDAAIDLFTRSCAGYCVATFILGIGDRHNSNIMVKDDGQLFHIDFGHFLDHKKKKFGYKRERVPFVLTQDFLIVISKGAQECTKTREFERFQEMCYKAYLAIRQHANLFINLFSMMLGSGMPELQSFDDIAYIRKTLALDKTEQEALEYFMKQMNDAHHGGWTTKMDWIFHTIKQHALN
# UniProt Q9Y4K4, sequence (whole entry, looked up): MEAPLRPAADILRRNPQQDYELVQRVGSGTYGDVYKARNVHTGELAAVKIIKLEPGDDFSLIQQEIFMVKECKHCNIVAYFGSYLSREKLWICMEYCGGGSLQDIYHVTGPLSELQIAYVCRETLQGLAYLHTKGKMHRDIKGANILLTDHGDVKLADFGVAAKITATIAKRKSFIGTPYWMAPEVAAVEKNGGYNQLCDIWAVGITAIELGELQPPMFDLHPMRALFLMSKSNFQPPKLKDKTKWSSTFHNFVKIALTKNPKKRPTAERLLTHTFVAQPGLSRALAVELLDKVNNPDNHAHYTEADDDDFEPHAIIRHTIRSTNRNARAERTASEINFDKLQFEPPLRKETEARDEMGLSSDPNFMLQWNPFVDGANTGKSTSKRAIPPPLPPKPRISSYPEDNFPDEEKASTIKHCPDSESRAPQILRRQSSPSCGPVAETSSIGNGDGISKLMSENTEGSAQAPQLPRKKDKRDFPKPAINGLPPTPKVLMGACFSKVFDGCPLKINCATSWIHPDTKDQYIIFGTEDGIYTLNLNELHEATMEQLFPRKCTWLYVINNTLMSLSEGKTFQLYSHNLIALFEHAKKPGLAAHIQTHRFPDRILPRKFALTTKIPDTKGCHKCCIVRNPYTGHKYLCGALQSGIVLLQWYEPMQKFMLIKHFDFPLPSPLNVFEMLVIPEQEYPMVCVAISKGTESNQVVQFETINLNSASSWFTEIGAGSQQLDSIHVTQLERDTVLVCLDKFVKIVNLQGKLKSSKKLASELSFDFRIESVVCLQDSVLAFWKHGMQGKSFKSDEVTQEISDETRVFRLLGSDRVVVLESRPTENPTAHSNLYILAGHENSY
# UniProt Q99755, sequence (whole entry, looked up): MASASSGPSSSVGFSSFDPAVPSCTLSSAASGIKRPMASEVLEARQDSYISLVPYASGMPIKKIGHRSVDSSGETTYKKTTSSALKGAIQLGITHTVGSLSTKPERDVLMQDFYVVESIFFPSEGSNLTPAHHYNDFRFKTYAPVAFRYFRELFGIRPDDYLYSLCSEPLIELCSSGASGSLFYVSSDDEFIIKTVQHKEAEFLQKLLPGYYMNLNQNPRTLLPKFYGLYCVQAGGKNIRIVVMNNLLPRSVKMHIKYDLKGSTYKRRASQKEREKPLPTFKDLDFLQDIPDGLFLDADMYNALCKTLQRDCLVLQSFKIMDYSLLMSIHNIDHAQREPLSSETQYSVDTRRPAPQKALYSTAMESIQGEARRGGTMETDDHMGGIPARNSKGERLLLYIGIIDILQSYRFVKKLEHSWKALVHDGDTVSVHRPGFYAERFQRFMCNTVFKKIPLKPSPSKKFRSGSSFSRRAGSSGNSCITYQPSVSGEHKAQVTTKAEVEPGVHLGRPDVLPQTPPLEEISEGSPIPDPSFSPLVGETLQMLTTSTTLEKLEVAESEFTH
# UniProt Q08881, sequence (whole entry, looked up): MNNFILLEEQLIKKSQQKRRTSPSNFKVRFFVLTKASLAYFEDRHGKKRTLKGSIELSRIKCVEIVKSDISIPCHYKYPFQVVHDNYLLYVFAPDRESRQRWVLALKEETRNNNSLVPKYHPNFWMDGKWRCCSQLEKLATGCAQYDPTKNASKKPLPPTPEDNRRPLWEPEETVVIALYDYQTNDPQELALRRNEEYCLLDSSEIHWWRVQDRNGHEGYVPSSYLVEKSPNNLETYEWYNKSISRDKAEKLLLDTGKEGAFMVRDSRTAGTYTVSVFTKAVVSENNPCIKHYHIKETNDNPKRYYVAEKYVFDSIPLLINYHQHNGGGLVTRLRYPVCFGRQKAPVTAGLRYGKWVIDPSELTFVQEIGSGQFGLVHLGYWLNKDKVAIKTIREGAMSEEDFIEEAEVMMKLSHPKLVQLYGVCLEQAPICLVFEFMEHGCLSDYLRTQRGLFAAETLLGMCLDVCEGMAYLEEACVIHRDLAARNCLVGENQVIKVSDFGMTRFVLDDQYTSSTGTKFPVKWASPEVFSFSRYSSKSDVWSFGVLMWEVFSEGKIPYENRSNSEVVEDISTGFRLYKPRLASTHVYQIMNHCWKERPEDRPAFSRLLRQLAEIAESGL
# UniProt P49759, sequence (whole entry, looked up): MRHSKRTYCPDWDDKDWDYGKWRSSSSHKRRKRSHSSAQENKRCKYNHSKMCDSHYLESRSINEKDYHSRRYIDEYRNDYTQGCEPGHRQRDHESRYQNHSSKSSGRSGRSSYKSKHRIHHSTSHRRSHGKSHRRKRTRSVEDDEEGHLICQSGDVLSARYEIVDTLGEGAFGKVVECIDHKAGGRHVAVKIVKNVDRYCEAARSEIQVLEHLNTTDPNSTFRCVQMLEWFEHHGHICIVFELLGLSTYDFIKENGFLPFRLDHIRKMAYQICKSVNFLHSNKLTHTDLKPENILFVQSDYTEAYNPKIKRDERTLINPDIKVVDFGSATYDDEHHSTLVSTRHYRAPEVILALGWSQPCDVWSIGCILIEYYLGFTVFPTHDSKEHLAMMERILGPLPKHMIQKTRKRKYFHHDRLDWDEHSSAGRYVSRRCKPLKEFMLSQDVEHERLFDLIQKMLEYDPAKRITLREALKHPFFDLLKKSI

# Sample 1 — concentration: 1 µM
# SMILES: CC[C@@]1(c2cccc(-c3c(F)cncc3OC)c2)C2=C(Nc3n[nH]cc31)[C@H](F)C(C)(C)CC2=O (single isomer, unassigned)
target,read-out,method,baseline,remaining binding [%]
"Calcium/calmodulin-dependent protein kinase kinase 2 (CAMKK2, Homo sapiens, UniProt Q96RR4)",kinase binding,KINOMEscan,DMSO control,84
"Leucine-rich repeat serine/threonine-protein kinase 2 (LRRK2, Homo sapiens, UniProt Q5S007, G2019S)",kinase binding,KINOMEscan,DMSO control,74
"Mitogen-activated protein kinase kinase kinase 20 (MAP3K20, Homo sapiens, UniProt Q9NYL2)",kinase binding,KINOMEscan,DMSO control,100
"Serine/threonine-protein kinase Nek1 (NEK1, Homo sapiens, UniProt Q96PY6)",binding,competition with immobilised ligand,,92
"Serine/threonine-protein kinase PLK4 (PLK4, Homo sapiens, UniProt O00444)",binding,competition with immobilised ligand,,74
"Phosphatidylinositol 4-phosphate 5-kinase type-1 alpha (PIP5K1A, Homo sapiens, UniProt Q99755)",binding,competition with immobilised ligand,,59
"Mitogen-activated protein kinase 13 (MAPK13, Homo sapiens, UniProt O15264)",kinase binding,KINOMEscan,DMSO control,100
"Dual specificity protein kinase CLK1 (CLK1, Homo sapiens, UniProt P49759)",binding,competition with immobilised ligand,,84
"Cyclin-dependent kinase 4, with cyclin D1 (CDK4, Homo sapiens, UniProt P11802)",kinase binding,KINOMEscan,DMSO control,63
"Mitogen-activated protein kinase kinase kinase 5 (MAP3K5, Homo sapiens, UniProt Q99683)",binding,competition with immobilised ligand,,68
"Serine/threonine-protein kinase PAK 2 (PAK2, Homo sapiens, UniProt Q13177)",kinase binding,KINOMEscan,DMSO control,79
"Tyrosine-protein kinase ITK/TSK (ITK, Homo sapiens, UniProt Q08881)",kinase binding,KINOMEscan,DMSO control,79
"Epidermal growth factor receptor (EGFR, Homo sapiens, UniProt P00533, del747-750/T751S)",kinase binding,KINOMEscan,DMSO control,93
"Mitogen-activated protein kinase 14 (MAPK14, Homo sapiens, UniProt Q16539)",kinase binding,KINOMEscan,DMSO control,71
"Myosin-IIIb (MYO3B, Homo sapiens, UniProt Q8WXR4)",binding,competition with immobilised ligand,,100
"Mitogen-activated protein kinase 15 (MAPK15, Homo sapiens, UniProt Q8TD08)",kinase binding,KINOMEscan,DMSO control,36
"Phosphatidylinositol 4,5-bisphosphate 3-kinase catalytic subunit alpha isoform (PIK3CA, Homo sapiens, UniProt P42336, E545K)",binding,competition with immobilised ligand,,71
"Inhibitor of nuclear factor kappa-B kinase subunit alpha (CHUK, Homo sapiens, UniProt O15111)",binding,competition with immobilised ligand,,85

# Sample 2 — read-out: binding; method: competition with immobilised ligand; concentration: 1 µM
# Compound: COc1cc(-c2nc3ccc(C(=O)NCCCN(C)C)cc3n2C2CCC2)cc(OC)c1OC
target,remaining binding [%]
"Phosphatidylinositol 4,5-bisphosphate 3-kinase catalytic subunit beta isoform (PIK3CB, Homo sapiens, UniProt P42338)",90
"Receptor-type tyrosine-protein kinase FLT3 (FLT3, Homo sapiens, UniProt P36888, D835V)",100
"Ephrin type-A receptor 6 (EPHA6, Homo sapiens, UniProt Q9UF33)",96
"Non-receptor tyrosine-protein kinase TNK1 (TNK1, Homo sapiens, UniProt Q13470)",92
"Mitogen-activated protein kinase kinase kinase 15 (MAP3K15, Homo sapiens, UniProt Q6ZN16)",81
"Casein kinase II subunit alpha' (CSNK2A2, Homo sapiens, UniProt P19784)",100
"Serine/threonine-protein kinase BRSK1 (BRSK1, Homo sapiens, UniProt Q8TDC3)",97
"Vascular endothelial growth factor receptor 2 (KDR, Homo sapiens, UniProt P35968)",100
"Phosphatidylinositol 4,5-bisphosphate 3-kinase catalytic subunit alpha isoform (PIK3CA, Homo sapiens, UniProt P42336)",95
"Mitogen-activated protein kinase kinase kinase kinase 5 (MAP4K5, Homo sapiens, UniProt Q9Y4K4)",100
"Mitogen-activated protein kinase kinase kinase 9 (MAP3K9, Homo sapiens, UniProt P80192)",99
"Epidermal growth factor receptor (EGFR, Homo sapiens, UniProt P00533)",82
"Serine/threonine-protein kinase MARK1 (MARK1, Homo sapiens, UniProt Q9P0L2)",64
"Ribosomal protein S6 kinase alpha-1, C-terminal kinase domain (RPS6KA1, Homo sapiens, UniProt Q15418)",92
"Serine/threonine-protein kinase Sgk3 (SGK3, Homo sapiens, UniProt Q96BR1)",84
"Insulin-like growth factor 1 receptor (IGF1R, Homo sapiens, UniProt P08069)",96

# Sample 3 — cell line: HCC1569; method: in-cell western; measured: CDK1 phospho-Thr14
# SMILES: Cc1ccc(O)c(C)c1-c1cnc2[nH]c(-c3cnc(N4CCC5(CC4)CC(N4CCN(c6ccc7c(c6)C(=O)N(C6CCC(=O)NC6=O)C7=O)CC4)CO5)nc3)cc2c1C#N (mixture of isomers)
concentration,pCDK1 (Thr14) level
500 nM,86.3 RLU and 92.3 RLU
3.906 nM,16.3 RLU and 17.8 RLU
15.63 nM,39.9 RLU and 40.9 RLU
62.50 nM,54.7 RLU and 46.4 RLU
125 nM,60.9 RLU and 64.2 RLU
7.81 nM,27.5 RLU and 22.8 RLU
31.25 nM,40.6 RLU and 45.8 RLU
250 nM,75.8 RLU and 69.2 RLU

# Sample 4 — read-out: thermal unfolding; method: differential scanning fluorimetry; concentration: 5.5 µM; reading: higher = more unfolded
# SMILES: C[C@@H]1CN(c2ccc(-c3cc(C(=O)NCCOCCOCCOCCOCCNC(=O)/C=C/c4[nH]cc(C(=O)N[C@@H](CC(N)=O)c5ccc(F)c(Cl)c5)c4-c4ccc(Cl)cc4F)ccc3F)cc2NC(=O)c2c[nH]c(=O)cc2C(F)(F)F)C[C@H](C)N1C
# WDR5: WD repeat-containing protein 5 (WDR5, Homo sapiens, UniProt P61964)
# DCAF1: DDB1- and CUL4-associated factor 1 (DCAF1, Homo sapiens, UniProt Q9Y4B6)
# UniProt Q9Y4B6, sequence (whole entry, looked up): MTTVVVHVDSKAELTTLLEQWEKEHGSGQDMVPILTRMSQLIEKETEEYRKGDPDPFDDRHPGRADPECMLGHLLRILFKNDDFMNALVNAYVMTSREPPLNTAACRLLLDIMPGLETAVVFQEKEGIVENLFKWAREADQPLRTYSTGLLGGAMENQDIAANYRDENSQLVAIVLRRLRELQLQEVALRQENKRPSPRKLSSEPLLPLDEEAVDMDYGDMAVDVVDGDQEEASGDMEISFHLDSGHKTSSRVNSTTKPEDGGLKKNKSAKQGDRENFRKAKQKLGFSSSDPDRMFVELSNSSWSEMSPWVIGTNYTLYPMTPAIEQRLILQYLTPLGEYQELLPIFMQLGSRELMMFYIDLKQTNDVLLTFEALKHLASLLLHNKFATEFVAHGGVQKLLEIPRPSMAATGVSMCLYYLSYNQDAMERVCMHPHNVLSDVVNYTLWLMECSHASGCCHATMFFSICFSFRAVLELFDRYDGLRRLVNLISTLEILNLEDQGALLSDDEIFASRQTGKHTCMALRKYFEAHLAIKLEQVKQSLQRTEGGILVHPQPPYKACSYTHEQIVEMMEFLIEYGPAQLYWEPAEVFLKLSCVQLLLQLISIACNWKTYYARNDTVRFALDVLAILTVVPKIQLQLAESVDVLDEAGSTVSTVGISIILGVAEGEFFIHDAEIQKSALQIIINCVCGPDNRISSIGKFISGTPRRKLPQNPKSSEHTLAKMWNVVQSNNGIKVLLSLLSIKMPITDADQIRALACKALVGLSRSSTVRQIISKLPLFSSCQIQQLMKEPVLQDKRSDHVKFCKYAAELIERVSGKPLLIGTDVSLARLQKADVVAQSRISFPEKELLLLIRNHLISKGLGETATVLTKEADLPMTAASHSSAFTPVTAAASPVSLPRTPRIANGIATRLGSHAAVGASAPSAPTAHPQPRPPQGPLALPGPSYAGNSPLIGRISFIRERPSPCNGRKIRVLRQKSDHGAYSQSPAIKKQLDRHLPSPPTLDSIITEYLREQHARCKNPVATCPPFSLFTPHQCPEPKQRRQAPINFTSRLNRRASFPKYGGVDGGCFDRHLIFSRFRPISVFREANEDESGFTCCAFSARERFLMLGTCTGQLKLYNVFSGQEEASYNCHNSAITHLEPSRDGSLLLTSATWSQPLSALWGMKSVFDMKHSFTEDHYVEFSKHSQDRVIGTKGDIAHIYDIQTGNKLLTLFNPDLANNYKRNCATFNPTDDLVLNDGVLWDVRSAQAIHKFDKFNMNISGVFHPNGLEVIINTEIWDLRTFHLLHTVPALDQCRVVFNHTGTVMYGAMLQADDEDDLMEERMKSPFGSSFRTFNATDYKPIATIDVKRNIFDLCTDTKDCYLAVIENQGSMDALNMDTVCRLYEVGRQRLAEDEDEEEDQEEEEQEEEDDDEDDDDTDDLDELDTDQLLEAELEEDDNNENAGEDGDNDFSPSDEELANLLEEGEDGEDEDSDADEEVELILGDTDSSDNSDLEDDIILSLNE
target,temperature,SYPRO Orange fluorescence [a.u.]
WDR5,33.2 °C,12900
DCAF1,87.81 °C,37200
WDR5,74.61 °C,24900
WDR5,48.4 °C,15900
WDR5,26 °C,13000
DCAF1,45.2 °C,13100
DCAF1,88.21 °C,36900
DCAF1,65.21 °C,59000
WDR5,29.4 °C,12700
WDR5,28.4 °C,12900
DCAF1,86.21 °C,38800

# For quick reference, copied from above (sample 3):
concentration,pCDK1 (Thr14) level
500 nM,86.3 RLU and 92.3 RLU
250 nM,75.8 RLU and 69.2 RLU
15.63 nM,39.9 RLU and 40.9 RLU
